Results collected from several papers.
“And” joins repeats or separate records; there may be more than shown. ± gives the spread as reported.
EPHX2: Bifunctional epoxide hydrolase 2 (EPHX2, Homo sapiens, UniProt P34913)
CACNA1I: Voltage-dependent T-type calcium channel subunit alpha-1I (CACNA1I, Homo sapiens, UniProt Q9P0X4)
MGLL: Monoglyceride lipase (MGLL, Homo sapiens, UniProt Q99685)
Tpo: Thyroid peroxidase (Tpo, Rattus norvegicus, UniProt P14650)

`CC12CC3CC(C)(C1)CC(Nc1c(Nc4ccc(CN5CCC[C@H](C(=O)NCCCCCCC(=O)NO)C5)cc4F)c(=O)c1=O)(C3)C2` gave an IC50 of 0.072 µM (EPHX2; enzyme activity, inhibitor, fluorescence).
For `COc1ccc(CCN(C)CCCOc2ccc(S(=O)(=O)c3c(C(C)C)c4ccccc4n3C)cc2)cc1OC`, the IC50 was 4.7 µM (CACNA1I; inhibitor, FLIPR calcium; HEK293 with GCaMP6s-CAAX, Kir2.3; added: KCl at EC90).
The IC50 of `O=C(OC(C(F)(F)F)C(F)(F)F)N1CCC(CCn2ccc3ccccc32)CC1` is reported as 0.62 µM and 0.64 µM (MGLL; enzyme activity, inhibitor).
For `CCOC(=O)/C(O)=C/C(=O)c1cn(Cc2ccc(F)cc2)c2cc(F)ccc2c1=O`, the IC50 was > 333 µM (Gag-Pol polyprotein, integrase (gag-pol, Human immunodeficiency virus 1, UniProt P12497); 3'-processing, inhibitor, gel-based; added: Mg2+).
The IC50 of `CN(C)c1cc2c(Nc3ccc4c(cnn4Cc4ccccc4)c3)ncnc2cn1` is reported as > 10 µM (Proto-oncogene tyrosine-protein kinase Src (SRC, Homo sapiens, UniProt P12931); enzyme activity, inhibitor, ADP detection).
`COc1ccc(/C=C2/C(=O)c3ccccc3C2N2CCOCC2)cc1` (stereo not shown) gave an IC50 of > 100 µM (Dual specificity protein phosphatase 6 (Homo sapiens, UniProt Q16828); ERK phosphorylation restoration, inhibitor, chemical complementation; HeLa transfected with c-Myc-DUSP6; 15 min, added: TPA).
The IC50 of `COc1cc(/C=C/C(=O)CC(=O)/C=C/c2ccc(O)c(OC)c2)ccc1O` is reported as 2.31 µM (Tpo; tyrosine iodination, LC-MS/MS; rat thyroid microsomes; added: KI 300 µM, H2O2 40 µM).
With `Fc1ccc(CN(CC(F)(F)F)C2CCN(CCCc3c[nH]c4ccc(Cn5cncn5)cc34)CC2)cc1` the IC50 was 0.0026 µM (CACNA1I; inhibitor, FLIPR calcium; HEK293 with GCaMP6s-CAAX, Kir2.3; added: KCl at EC90).
`O=P(O)(O)OC[C@H](O)CO` gave an IC50 of 2100 µM (Intelectin-1 (ITLN1, Homo sapiens, UniProt Q8WWA0); binding, competitor, biolayer interferometry; added: human intelectin-1 binding immobilised β-Galf).
`C#CCOCCC(=O)NC(Cc1ccccc1)C(=O)NC(Cc1ccccc1)C(=O)NC(C=CC(=O)OCC)CC1CCNC1=O` (stereo not shown) has an IC50 of 0.8 µM (Replicase polyprotein 1ab, main protease (rep, Severe acute respiratory syndrome coronavirus 2, UniProt P0DTD1); enzyme activity, inhibitor).
`O=C(OC(C(F)(F)F)C(F)(F)F)N1CCC(CCCn2ccc3ccc(F)cc32)CC1` has an IC50 of 0.23 µM (MGLL; enzyme activity, inhibitor).
For `O=C(COc1cc([N+](=O)[O-])ccc1Cl)Nc1cc(Cl)ccc1C(=O)O`, the IC50 was 2.6 µM (Transient receptor potential cation channel subfamily M member 4 (TRPM4, Homo sapiens, UniProt Q8TD43); ion flux, inhibitor, fluorescence).
`COCC(=O)O[C@]1(CCN(C)CCCc2nc3ccccc3[nH]2)CCc2cc(F)ccc2[C@@H]1C(C)C` gave an IC50 of 4 ± 1.1 µM (Voltage-dependent P/Q-type calcium channel subunit alpha-1A, with β4/α2δ1 (Homo sapiens, UniProt O00555); calcium current, blocker, automated patch clamp; tonic block, holding -90 mV).
`COc1ccc(C(/C=C/CN2CCC[C@@H]2[C@H](O)C(=O)O)(c2ccc(OC)cc2)c2ccc(OC)cc2)cc1` gave an IC50 of 4.4 µM (Sodium- and chloride-dependent GABA transporter 3 (SLC6A11, Homo sapiens, UniProt P48066); GABA uptake, inhibitor; HEK-293T; 15 min preincubation).
With `C[C@]12C[C@@H]3C[C@](C)(C1)C[C@@](NC(=O)Nc1ccc(CN4CCC[C@H](C(=O)NCCCCCCC(=O)NO)C4)cc1F)(C3)C2` the IC50 was 0.0002 µM (EPHX2; enzyme activity, inhibitor, fluorescence).
With `Cc1cn([C@H]2C[C@H](O)[C@@H](CO)O2)c(=O)[nH]c1=O` the IC50 was 299 µM (Nucleoside transporter 1 (Plasmodium vivax, UniProt A5K8B0); [3H]uridine uptake, inhibitor; Nucleoside transporter 1-expressing yeast; added: 250 nM [3H]uridine).
With `NS(=O)(=O)c1ccc(N2N=C(C(F)(F)F)C[C@@H]2c2ccc(F)cc2F)cc1` the IC50 was > 500 µM (Prostaglandin G/H synthase 1 (Canis lupus familiaris, UniProt Q8HZR1); TXB2 formation, inhibitor; clotting dog whole blood; 1 h, 37 °C).
`C[C@]12CC3CC(Nc4c(Nc5ccc(C(=O)N6CCC[C@H](C(=O)NCCCCC(=O)NO)C6)cc5)c(=O)c4=O)(C1)C[C@@](C)(C3)C2` has an IC50 of 0.104 µM (EPHX2; enzyme activity, inhibitor, fluorescence).
With `Cc1ccc([N+](=O)[O-])cc1S(=O)(=O)N(C)C` the IC50 was 12.1 µM (3',5'-cyclic-AMP phosphodiesterase 7B (PDE7B, Homo sapiens, UniProt Q9NP56); enzyme activity, inhibitor, radiometric).
For `COc1cc(CCC(=O)CC(=O)CCc2ccc(O)c(OC)c2)ccc1O`, the IC50 was 1.55 µM (Tpo; tyrosine iodination, LC-MS/MS; rat thyroid microsomes; added: KI 300 µM, H2O2 40 µM).
For `O=C(Nc1cc(C(=O)Nc2ccc(S(=O)(=O)O)cc2S(=O)(=O)O)cc(C(=O)Nc2ccc(S(=O)(=O)O)cc2S(=O)(=O)O)c1)Nc1cc(C(=O)Nc2ccc(S(=O)(=O)O)cc2S(=O)(=O)O)cc(C(=O)Nc2ccc(S(=O)(=O)O)cc2S(=O)(=O)O)c1`, the IC50 was 28.2 µM (human MBNL1; CUG repeat RNA binding, inhibitor, HTRF; added: biotin-(CUG)12 RNA).
`CC(=O)Oc1cc(-c2coc3cc(OC(C)=O)c(OC(C)=O)c(OC(C)=O)c3c2=O)cc(OC(C)=O)c1OC(C)=O`: IC50 “no inhibition” (firefly luciferase; ADP-Glo ADP processing, luminescence counter-screen; cell-free, no kinase; up to 77 µM, added: ADP 1.25 µM, ATP 11.25 µM).

Some of these lines once more:
For `COc1ccc(CCN(C)CCCOc2ccc(S(=O)(=O)c3c(C(C)C)c4ccccc4n3C)cc2)cc1OC`, the IC50 was 4.7 µM (CACNA1I; inhibitor, FLIPR calcium; HEK293 with GCaMP6s-CAAX, Kir2.3; added: KCl at EC90).
The IC50 of `O=C(OC(C(F)(F)F)C(F)(F)F)N1CCC(CCn2ccc3ccccc32)CC1` is reported as 0.62 µM and 0.64 µM (MGLL; enzyme activity, inhibitor).
For `CCOC(=O)/C(O)=C/C(=O)c1cn(Cc2ccc(F)cc2)c2cc(F)ccc2c1=O`, the IC50 was > 333 µM (Gag-Pol polyprotein, integrase (gag-pol, Human immunodeficiency virus 1, UniProt P12497); 3'-processing, inhibitor, gel-based; added: Mg2+).
